Assay results collected from several papers.
Protocols differ between the studies behind these lines. Values joined by “and” are separate records of one study, mostly repeats; a detail may differ. Numbers after ± are the reported error.
UniProt Q13310, sequence (whole entry, looked up): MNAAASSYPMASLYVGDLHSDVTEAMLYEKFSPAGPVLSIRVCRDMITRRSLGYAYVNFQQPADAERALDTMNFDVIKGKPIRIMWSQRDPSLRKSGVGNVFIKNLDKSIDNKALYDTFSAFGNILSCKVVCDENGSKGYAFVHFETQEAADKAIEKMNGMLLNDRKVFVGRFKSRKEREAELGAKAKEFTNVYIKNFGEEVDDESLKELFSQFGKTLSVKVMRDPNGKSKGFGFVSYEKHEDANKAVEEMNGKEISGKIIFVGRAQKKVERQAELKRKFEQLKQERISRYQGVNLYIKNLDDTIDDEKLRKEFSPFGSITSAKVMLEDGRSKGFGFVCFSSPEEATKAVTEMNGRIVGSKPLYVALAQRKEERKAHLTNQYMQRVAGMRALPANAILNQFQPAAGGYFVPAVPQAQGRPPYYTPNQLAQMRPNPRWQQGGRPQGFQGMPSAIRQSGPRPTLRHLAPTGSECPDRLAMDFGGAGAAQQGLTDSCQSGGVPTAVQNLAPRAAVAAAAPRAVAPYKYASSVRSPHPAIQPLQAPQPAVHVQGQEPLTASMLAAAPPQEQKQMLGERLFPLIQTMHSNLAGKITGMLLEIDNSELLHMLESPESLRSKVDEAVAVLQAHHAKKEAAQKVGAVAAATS

COc1cc(C(=O)NC2CCN(C)CC2)c(F)cc1Nc1ncc(C(F)(F)F)c(Oc2cccc3c2C(=O)N(C)C3)n1  dose-normalised Cmax at steady state (human patients, plasma; oral, 50 mg once daily repeated, geometric mean): 8.61 nmol/L per mg
O=C(Nc1ccccc1)C1CCN(C(=O)Oc2cccnc2)CC1  adverse event incidence (refers to: Vertigo; healthy female human; concentration not given, all doses pooled): 29%
Cn1cncc1-c1c(F)cncc1NC(=O)c1c(N)nn2cc(F)cnc12  grade ≥3 white cell decrease incidence (human patients; oral, 80 mg once daily): 0%
C[C@H]1CN(c2n[nH]c3nc(N[C@H]4CC[C@H](NS(=O)(=O)CCC(F)(F)F)CC4)ncc23)CCO1  remaining binding (Polyadenylate-binding protein 4 (Homo sapiens, UniProt Q13310); Kinobeads competition, refers to: PABPC4; 0.032 µM, unit not given; reference: vehicle): 1.06
Cc1cn([C@H]2O[C@@H](CO[P@@](=O)(N[C@@H](C)C(=O)OC(C)C)Oc3ccccc3)[C@H](O)[C@H]2F)c(=O)[nH]c1=O  patients with TEAE (refers to: bone pain; human; 10 mg): 0%
CCC[C@H]1CC[C@H](c2ccc(-c3ccc(F)cc3)cc2)CC1  placental accumulation (rat, placenta; 1000 ng/mL in perfusate, middle dose, mixture of 21 LCMs): 10.6 ± 15 ng/g
COc1ncccc1-c1cnn2ccc(N3CCN(C(=O)OC(C)C)CC3)nc12  drug concentration (mouse, SNL model, plasma; oral, 30 mg/kg, 120 min): 6.3 µM
COc1cc2c(Oc3ccc4[nH]c(C)cc4c3F)ccnc2cc1OCC1(N)CC1  sinus tachycardia incidence (paediatric refractory sarcoma patients; 8 mg): 0%
CC(C)C[C@H](NC(=O)[C@H](CCCCN)NC(=O)OCC1c2ccccc2-c2ccccc21)C(=O)N[C@H](C(=O)N[C@@H](Cc1ccccc1)C(=O)N[C@@H](Cc1ccccc1)C(=O)N[C@@H](CCCCN)C(=O)NCC(=O)N[C@@H](Cc1ccccc1)C(=O)N[C@@H](C)C(=O)N[C@@H](Cc1c[nH]c2ccccc12)C(=O)N[C@@H](CC(N)=O)C(=O)N[C@H](C(=O)N[C@H]1CSSC[C@@H](C(=O)N[C@@H](Cc2c[nH]cn2)C(=O)N[C@@H](CCCNC(=N)N)C(=O)N[C@@H](CCCNC(=N)N)C(=O)N[C@@H](C)C(=O)N[C@@H](CC(N)=O)C(N)=O)NC(=O)[C@H](C(C)C)NC(=O)[C@H](CCCNC(=N)N)NC(=O)[C@H](C(C)C)NC(=O)CNC(=O)[C@H](CC(N)=O)NC(=O)[C@H](CCCNC(=N)N)NC(=O)[C@H](Cc2ccc(O)cc2)NC(=O)[C@H](C(C)C)NC1=O)C(C)C)C(C)C  neutrophils (ICR mice, blood; intraperitoneal, 5 mg/kg, day 5): 18.6 ± 1%
O=S(=O)(Nc1ccccc1)c1ccc(NC(=S)Nc2ccccc2)cc1  serum enzyme activity (refers to: AST; female mouse, blood; oral, 5 mg/kg daily, 14 days): 587 U/L
CCC[C@@](N)(CO)CCc1ccc(OCCCCCC(C)C)cc1  Tmax (dog; oral, 5 mg/kg): 6 h
Cc1ccc(F)c2cc(C(=O)N[C@@H]3CCC[C@H](N4CC[C@H](N(C)S(C)(=O)=O)C4)C3)[nH]c12  plasma concentration (CD1 mouse, plasma; oral, 100 mg/kg, 24 h): 4.6 ng/mL
CCOc1ccc(NC(=O)O[C@@H](Cn2nc(C(C)C)cc2C(C)C)C(C)C)cc1  larval viability (zebrafish larvae, HEPES-buffered medium; immersion, up to 100 µM, 24 h, pH 7): 100%
C[C@@H]1OC(=O)NN=C1c1ccc(-c2ccc(F)cc2)c(C(F)(F)F)c1  patients with adverse event (phase I trial, refers to: back pain worst grade 1; human patients; 5 mg loading then 0.25 mg daily): 0%
CC(C)(C)c1cc(-n2nc3ccccc3n2)c(O)c(C(C)(C)C)c1  daily dermal exposure dose (human aged 1-2 years; concentration not given, sunscreen, 95th percentile): 7.48 ng/kg/day
COc1ccc2nc3cc(Cl)ccc3c(Nc3cc(CN4CCCC4)c(O)c(CN4CCCC4)c3)c2n1  mean corpuscular haemoglobin (mouse, blood; intraperitoneal, 28 mg/kg): 16.8 pg
CNC(=O)[C@@H](NC(=O)c1cc(OCC2(C)COC2)c(C2CC2)cn1)C(C)(C)C  oral bioavailability (C57BL/6 mice; oral, dose not given): 31%
Clc1ccc(Cl)c(-c2cc(Cl)ccc2Cl)c1  concentration (Sprague Dawley rat female, adipose tissue; intraperitoneal, 1 mg/kg, 3 weeks): 55 ng/g
O=[N+]([O-])c1ccc2c(c1)S(=O)(=O)C=C2  spleen weight (male C57BL/6 mice; i.p., 10 mg/kg, day 8, repeated dosing): 0.121 g
O=c1ccc2ccccc2o1  fraction unbound in plasma (calculated from % plasma protein binding; human): 0.31
Cc1cccc(Cn2nc(C3CC3)c3c(NC(=O)c4cnc5cc(OCCN6CCN(C)CC6)ccn45)cccc32)n1  all-cause adverse events (CTCAE v4.03, refers to: abdominal pain; platinum-resistant ovarian cancer patients; oral, dose not given, with: pembrolizumab IV every 3 weeks): 36.4%
CC[C@H](C)[C@H](NC(=O)[C@H](Cc1ccccc1)NC(=O)[C@H](CCC(=O)O)NC(=O)[C@H](CCCNC(=N)N)NC(=O)[C@H](C)NC(=O)[C@H](C)NC(=O)[C@H](CCC(N)=O)NC(=O)[C@H](CCC(=O)O)NC(=O)[C@H](CCC(=O)O)NC(=O)[C@H](CC(C)C)NC(=O)[C@H](Cc1ccc(O)cc1)NC(=O)[C@H](CO)NC(=O)[C@H](CO)NC(=O)[C@@H](NC(=O)[C@H](CC(=O)O)NC(=O)[C@H](CO)NC(=O)[C@@H](NC(=O)[C@H](Cc1ccccc1)NC(=O)[C@@H](NC(=O)CNC(=O)[C@H](CCC(=O)O)NC(=O)[C@H](C)NC(=O)CCc1cnc[nH]1)[C@@H](C)O)[C@@H](C)O)C(C)C)C(=O)N[C@@H](C)C(=O)N[C@@H](Cc1c[nH]c2ccccc12)C(=O)N[C@@H](CC(C)C)C(=O)N[C@H](C(=O)N[C@@H](CCCNC(=N)N)C(=O)NCC(=O)N[C@@H](CCCNC(=N)N)C(=O)N[C@@H](CCCCNC(=O)COCCOCCNC(=O)COCCOCCNC(=O)CC[C@H](NC(=O)CCCCCCCCCCCCCCCCC(=O)O)C(=O)O)C(=O)NCC(=O)NCC(=O)N[C@@H](CO)C(=O)N[C@@H](CCSC)C(=O)N[C@H](C(=O)N[C@@H](CCCCNc1c(NCCCCCN(O)C(=O)CCC(=O)NCCCCCN(O)C(=O)CCC(=O)NCCCCCN(O)C(C)=O)c(=O)c1=O)C(=O)O)C(C)C)C(C)C [zirconium-89 labelled]  tissue uptake (ex vivo gamma counting; male Sprague-Dawley rat, heart; intravenous, 1 nmol, 72 h): 0.08 %ID/g and 0.078 %ID/g
CN1CC[C@@H](c2c(O)cc(O)c3c(=O)cc(-c4ccc(C(F)(F)F)cc4Cl)oc23)[C@@H]1CO  patients with adverse event (refers to: Leukopenia; relapsed B-cell malignancies; oral, 100 mg, grade 3-4, intermittent dosing): 0%
O=C1Nc2cc3[nH]nc(-c4ccncc4)c3cc2CN1Cc1ccccc1  patients with rash (CTCAE v4.03; human, relapsed or refractory advanced solid tumours; intravenous, 0.9 mg/kg, pooled schedules): 0%
CCCC[C@H](NC(=O)[C@@H]1CCCN1C(=O)c1coc(C)n1)C(=O)N[C@@H](CC(C)C)C(=O)NC(C)(C)C(=O)N[C@@H](CC(C)C)C(=O)N[C@@H](CC(C)C)C(=O)NC(C)(C)C(=O)NC(C)(C)C(=O)NCCC(=O)NC1(CN(C)C)CCC1  alpha-helix content (circular dichroism; phosphate buffer; pH 7.4, 20 °C): 40.3%
CC(=O)c1c(C)c2cnc(Nc3ccc(C4CCN(CCS(C)(=O)=O)CC4)cn3)nc2n(C2CCCC2)c1=O  patients with GGT increased (HR+/HER2- advanced breast cancer patients; oral, dose not given, grade 3/4,, total): 2.5%
CN[C@@H](C)C(=O)N[C@H]1CN(S(=O)(=O)c2cccc(S(=O)(=O)N3CC[C@H]4CC[C@@H](C(=O)NC(c5ccccc5)c5ccccc5)N4C(=O)[C@@H](NC(=O)[C@H](C)NC)C3)c2)CC[C@H]2CC[C@@H](C(=O)NC(c3ccccc3)c3ccccc3)N2C1=O  treatment-related AST elevation incidence (patients with advanced solid tumours; 0.3 mg, phase I monotherapy): 0%
CC(C)[C@@H]1NC(=O)CNC(=O)[C@H](CC(N)=O)NC(=O)[C@H](CCCNC(=N)N)NC(=O)[C@H](Cc2ccc(O)cc2)NC(=O)[C@H](C(C)C)NC(=O)[C@@H](NC(=O)[C@@H](NC(=O)[C@H](CC(N)=O)NC(=O)[C@H](Cc2c[nH]c3ccccc23)NC(=O)[C@H](C)NC(=O)[C@H](Cc2ccccc2)NC(=O)CN)C(C)C)CSSC[C@@H](C(=O)N[C@@H](Cc2cnc[nH]2)C(=O)N[C@@H](CCCNC(=N)N)C(=O)N[C@@H](CCCNC(=N)N)C(=O)N[C@@H](C)C(=O)N[C@@H](CC(N)=O)C(N)=O)NC(=O)[C@H](C(C)C)NC(=O)[C@H](CCCNC(=N)N)NC1=O  blood urea nitrogen (ICR mice, serum; intraductal mammary, 5 mg/kg, day 5): 10.2 ± 0.62 mmol/L
O=c1ccc2ncc(=O)n3c2n1C[C@H]3CN1CCC(NCc2cc3c(cn2)OCCC3)CC1  incidence of ALT increased (healthy human volunteers; oral, 1500 mg, rifampicin cohort, with: rifampicin 600 mg): 0%
N[C@@H]1c2ccccc2OC12CCN(c1cnc3c(N4CCCc5ncccc54)n[nH]c3n1)CC2  TEAE leading to withdrawal (advanced metastatic solid tumour patients; oral, 150 mg once daily): 50%
C[C@]1(CO)Cc2ncn(-c3ccc(C#N)c(Cl)c3)c2C(=O)O1  drug-related orthostatic hypotension (healthy Japanese subjects; dose not given, single dose, all doses): 11.1%
C#C[C@]1(CO)O[C@@H](n2cnc3c(N)nc(F)nc32)C[C@@H]1O  NOAEL (monkey; oral, 29 days): 20 mg/kg
C=CC(=O)N1CC[C@H](n2nc(C#Cc3cc(OC)cc(OC)c3)c3c(N)ncnc32)C1  AST increased, any grade (human patients, all; oral, dose not given, QD regimen, adverse drug reaction): 18.6%
COc1ccc(-c2c(-c3ccc(C#N)c(F)c3)nc(N3CCC(N)CC3)n(C)c2=O)cc1F  serious TEAE incidence (refers to: wound infection; human patients; oral, dose not given, dose escalation): 2%
COc1ccc2c(c1)NC(=O)CN2c1nc(C)nc2c1CCC2  maximum tolerated dose (body weight; NSG mouse; preliminary): > 4 mg/kg
O=C(Nc1ccccc1)C1CCN(C(=O)Oc2cccnc2)CC1  subjects with infections and infestations (adverse event reporting; healthy women; oral, 20 mg, 7 days): 7.1%
CO[C@H]1C[C@@H]2CC[C@@H](C)[C@@](O)(O2)C(=O)C(=O)N2CCCC[C@H]2C(=O)O[C@H]([C@H](C)C[C@@H]2CC[C@@H](OC(=O)NCCOCCOCCOCCOCCOCCOCCOCCOCCC(=O)N3CCc4cc(Cn5nc(-c6ccc7oc(N)nc7c6)c6c(N)ncnc65)ccc4C3)[C@H](OC)C2)C[C@@H](O)[C@H](C)/C=C(\C)[C@@H](O)[C@@H](OC)C(=O)[C@H](C)C[C@H](C)/C=C/C=C/C=C/1C  incidence of Nausea TRAE (patients with advanced solid tumours; intravenous, 1.6 mg/3 mg weekly, grade ≥3): 0%
S=c1oc(-c2ccccc2)nn1CN1CCN(Cc2ccccc2)CC1  serum AST (Wistar rat female; oral, 500 mg/kg, acute toxicity OECD 423): 124 ± 13.4 U/L
[O-][S+]1CCc2nc(N3CCC(c4ncc(Cl)cn4)CC3)nc(NC3(CO)CCC3)c21 (stereo not drawn)  Investigations adverse events (idiopathic pulmonary fibrosis patients; 18 mg twice daily): 30%

For quick reference, copied from above:
CC(=O)c1c(C)c2cnc(Nc3ccc(C4CCN(CCS(C)(=O)=O)CC4)cn3)nc2n(C2CCCC2)c1=O  patients with GGT increased (HR+/HER2- advanced breast cancer patients; oral, dose not given, grade 3/4,, total): 2.5%
CN[C@@H](C)C(=O)N[C@H]1CN(S(=O)(=O)c2cccc(S(=O)(=O)N3CC[C@H]4CC[C@@H](C(=O)NC(c5ccccc5)c5ccccc5)N4C(=O)[C@@H](NC(=O)[C@H](C)NC)C3)c2)CC[C@H]2CC[C@@H](C(=O)NC(c3ccccc3)c3ccccc3)N2C1=O  treatment-related AST elevation incidence (patients with advanced solid tumours; 0.3 mg, phase I monotherapy): 0%
CC(C)[C@@H]1NC(=O)CNC(=O)[C@H](CC(N)=O)NC(=O)[C@H](CCCNC(=N)N)NC(=O)[C@H](Cc2ccc(O)cc2)NC(=O)[C@H](C(C)C)NC(=O)[C@@H](NC(=O)[C@@H](NC(=O)[C@H](CC(N)=O)NC(=O)[C@H](Cc2c[nH]c3ccccc23)NC(=O)[C@H](C)NC(=O)[C@H](Cc2ccccc2)NC(=O)CN)C(C)C)CSSC[C@@H](C(=O)N[C@@H](Cc2cnc[nH]2)C(=O)N[C@@H](CCCNC(=N)N)C(=O)N[C@@H](CCCNC(=N)N)C(=O)N[C@@H](C)C(=O)N[C@@H](CC(N)=O)C(N)=O)NC(=O)[C@H](C(C)C)NC(=O)[C@H](CCCNC(=N)N)NC1=O  blood urea nitrogen (ICR mice, serum; intraductal mammary, 5 mg/kg, day 5): 10.2 ± 0.62 mmol/L
O=c1ccc2ncc(=O)n3c2n1C[C@H]3CN1CCC(NCc2cc3c(cn2)OCCC3)CC1  incidence of ALT increased (healthy human volunteers; oral, 1500 mg, rifampicin cohort, with: rifampicin 600 mg): 0%
N[C@@H]1c2ccccc2OC12CCN(c1cnc3c(N4CCCc5ncccc54)n[nH]c3n1)CC2  TEAE leading to withdrawal (advanced metastatic solid tumour patients; oral, 150 mg once daily): 50%
C[C@]1(CO)Cc2ncn(-c3ccc(C#N)c(Cl)c3)c2C(=O)O1  drug-related orthostatic hypotension (healthy Japanese subjects; dose not given, single dose, all doses): 11.1%
